Measured values collected from several papers.
Every numbered part comes from another study and shows a few of its results, in no order.

Study 1 — method: protein binding microarray; molecule type: double-stranded DNA, one strand shown; medium: in vitro; concentration: not given; relative to: not given; reading: higher = stronger binding
Target: Histone acetyltransferase KAT6A, winged helix 2, GST fusion (KAT6A, Homo sapiens, UniProt Q92794, residues 85-181)
Notes: 8-mer, flanks averaged, mean of 2 arrays, mostly near background
Residues (chain): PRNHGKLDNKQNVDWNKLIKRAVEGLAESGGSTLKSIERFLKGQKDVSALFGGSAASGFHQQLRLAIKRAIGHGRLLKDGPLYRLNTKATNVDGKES
| Sequence | E-score |
| --- | --- |
| GAACTTGC | 0.0861 |
| AGACTAAA | -0.114 |
| CCTCGCCA | 0.0105 |
| ACAGACTG | -0.211 |
| CAAGTTCC | -0.0971 |
| AGGCGTAT | 0.124 |
| CGCCCTAG | 0.123 |
| ACAGAATA | -0.0987 |
| ACATCTAA | -0.0971 |
| GCAGTCCC | 0.0253 |
| AAGATTTC | -0.0833 |
| GACCAGGA | -0.0563 |
| CTGCACAC | -0.0982 |
| GCCAACCC | 0.0893 |
| AGCTGATG | 0.227 |
| CAGTTTTC | 0.0979 |
| AGACTTGA | -0.0709 |
| CGCCAATC | 0.025 |
| AGCCATTC | -0.0941 |
| GCTCGCGA | 0.154 |
| CCATACCC | -0.00787 |

Study 2 — method: protein-binding microarray; molecule type: double-stranded DNA, one strand shown; medium: in vitro; concentration: 2200 nM top; notes: 60-bp whole probe; added: salmon DNA 0.4 mg/ml; relative to: random background probes; reading: higher = stronger binding; shared flanks, not repeated: GCCTAGCAC … GTCTTGATTCGCTTGACGCTGCTG
Target: Interferon regulatory factor 7, full length, phosphomimetic (IRF7, Homo sapiens, UniProt Q92985, residues 1-503, S471D/S472D/S475D/S476D/S477D/S483D/S484D/S487D)
Target sequence (chain): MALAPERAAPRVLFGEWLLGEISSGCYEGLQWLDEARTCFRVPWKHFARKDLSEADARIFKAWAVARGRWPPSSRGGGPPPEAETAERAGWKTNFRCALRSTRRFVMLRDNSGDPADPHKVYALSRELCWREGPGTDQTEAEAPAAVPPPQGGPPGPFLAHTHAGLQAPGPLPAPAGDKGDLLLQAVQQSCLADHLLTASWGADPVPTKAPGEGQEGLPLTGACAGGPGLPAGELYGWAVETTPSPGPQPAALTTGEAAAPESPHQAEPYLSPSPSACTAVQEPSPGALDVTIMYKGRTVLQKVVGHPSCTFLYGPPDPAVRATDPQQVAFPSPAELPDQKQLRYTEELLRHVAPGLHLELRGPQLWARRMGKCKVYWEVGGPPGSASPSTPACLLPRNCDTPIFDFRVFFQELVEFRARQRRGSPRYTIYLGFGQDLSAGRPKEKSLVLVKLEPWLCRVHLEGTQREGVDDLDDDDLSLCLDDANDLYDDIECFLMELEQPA
| Sequence | fitted relative affinity [z-score] |
| --- | --- |
| TCACATACTAATTTCCAACTGTGCTAG | 1.28 |
| GTCGGACTGGGTATCGGGACGTGCTAG | -0.726 |
| AAGTTTACCCATCTCCAGTAGTGCTAG | 1.33 |
| TTAGGTATCGGGTATCGGATAGTGCTA | 0.36 |
| TTAGAAATCGGGTTTCGATTAGTGCTA | 2.2 |
| GACGGTTCCCGTTTCGGGACGTGCTAG | 2.91 |
| GACGAACTCAGTTTCGAGACGTGCTAG | 3.34 |
| GACGATTTCGGGTTTCGAGAGGTGCTA | 4.89 |
| GACGGACTGGGGACTGGTGACGTGCTA | -0.754 |
| TTAGGACGGGGGTTTCGGTTAGTGCTA | 4.19 |
| TCAAGTTTTCTTTTCCAACTGTGCTAG | 3.59 |
| GAAGGTATCCTTTTCCTGACGTGCTAG | 1.02 |
| GACCATATCAGTATCGAGACGTGCTAG | 0.708 |
| GACGTTATCGGGTTTCGGGACGTGCTA | 2.34 |
| TTAGGACTGGACTTTCGGTTGGTGCTA | 7.07 |
| GACGGTATACTTCTCCTGACGTGCTAG | 0.768 |
| TTAGGTTCCCTTTTCCTTTCGTGCTAG | 4.62 |
| GACGGTCGCCTTTTCCTGACGTGCTAG | 0.647 |
| TACGAACTGGGGACTGGAGACGTGCTA | -0.288 |
| GACGGCCTGGGTCTCGGGACGTGCTAG | -1.23 |
| TTAGGTATCCTGTTCCTTTAGTGCTAG | 1.26 |
| GACGGTCTCGGTCTCGCGACGTGCTAG | 0.135 |
| TTAAGTCTCGGTCTCGGTTAGTGCTAG | 0.957 |
| TTAGGTCTCGGACCGGGTTAGTGCTAG | -0.467 |
| ATCATTTTAGTTTTCATTATGTGCTAG | 3.16 |

Study 3 — method: RNA Bind-n-Seq; molecule type: RNA; medium: in vitro; concentration: not given; notes: RNA with constant flanks, ends assumed; relative to: input RNA pool; reading: higher = stronger binding
Target: RING finger protein unkempt homolog, zinc fingers 1-6, GST-SBP tag (UNK, Homo sapiens, UniProt Q9C0B0, residues 30-357)
Shared flanks, not repeated: GGGAGUUCUACAGUCCGACGAUC … CAACAGAGGAUUGAGCAUCA
Target sequence (chain): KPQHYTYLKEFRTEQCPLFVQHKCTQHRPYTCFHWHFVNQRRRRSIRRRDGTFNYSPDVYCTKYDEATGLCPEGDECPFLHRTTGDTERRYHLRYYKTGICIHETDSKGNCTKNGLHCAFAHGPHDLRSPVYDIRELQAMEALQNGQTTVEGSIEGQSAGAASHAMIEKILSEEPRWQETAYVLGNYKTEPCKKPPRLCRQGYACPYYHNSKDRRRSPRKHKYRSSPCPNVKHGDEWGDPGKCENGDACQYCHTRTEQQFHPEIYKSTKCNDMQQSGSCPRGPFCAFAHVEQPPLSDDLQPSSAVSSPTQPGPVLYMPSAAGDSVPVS
| Sequence | bound/input enrichment [ratio] |
| --- | --- |
| GGAAUGCAGCCUGCUCACAGCGCCCUGAUGCCCUCCGUGACACACAUACCCACCCCUCCACACCGAACACAAGUCCCCCGGUGCAUGCACCAUGCCCACUGCCUUUCUUUGCACUGAUGU | 0.373 |
| UUGAUUCAUAGGGAUAUUAAAGCAGGAAAUAUUCUUCUAACAGAGCCAGGUCAGGUAAAACCCGCUGAUUUUGGAUCUGCUUCAAUGGCUUCUCCUGCCAACUCCUUCGUGGGCACACCU | 0.0653 |
| GGUGCAUGGAACAUGAAUUCUUAACAGAGAUUUCAGAUUUCCUUGUCUUUGCUAAAUACACCGUAUGAAACCCCUUAAUUUUUCUUGUUUAAUGAAUGGAGAACACAUGAGAAAAUCAGA | 0.211 |
| GAUGGUGCUGUCUUCUUUAACAAAGAAAGAACGAGGAAUAUUGUGAAAUUUGACUUGAGGACCCGAAUUAAGAGUGGCGAGGCCAUAAUUAACUAUGCCAACUACCAUGAUACCUCACCA | 0.11 |
| GAGUUUCCAGACAAGGUUUUUGCUGAGAAGUGGAAUGAAAAUGUUCAGUAUCUCUCAGAAGACCGAAGUGUGCAAGAAGUACUACAGAAGCAUUUCAAUAUCAGCAAAAACCUGCGGUCA | 0.0878 |
| CUAUCAAAGGUUCCGGCUUGAAGGGAACUGUCACUACCCCCUCUAGGAAGUUAUUUUAUGCCGCAUGUUUGCAUAUACGCAUUGUGUGGCAUGUGCAUAGAGGCUUGUUUUACACCUAUC | 0.737 |
| UAAUAUAUUUUUCCUACUUGUGGGAAAAGUAUUAUAAGUUUGGUUAAAUUGUCAUGUUUACCGUUUUUCCAAGUACAUUUGUAACUACAGCAGGCCUUCUUCGUACUGCUGCUGUUGGAC | 0.251 |
| CAAGUCUAACAAUAUUUCCAUUUCUGAAAGGCCAGUGAAUGUCCUGCAGAAAAUGAGGUUACCCGACCUUUCCUCCAACCCAUCAAUUGAUGAAAGCCAGCUGAGCCUUAUAGCAGAUCU | 0.437 |
| AUGUCUGCCAGAACACAAUUUAUAUGCCGAAUUAUUGGCUCCAUUAAACUUUUUAAAAACUUCCGCACUGGUUACUUUUUUCCAUUGCAUUCAAUAUGUAGCACCUCCUCACCUCAUGAG | 2.81 |
| AUGGAUGACAAGGCUUCUGUUGGAAAAAUCAGUGUCUCUUCAGACUCAGUAUCUACUCUUAACCGUGAAGAUUUUGUCUUGGUUUCCAGGCAAGGAGAUGAGACACCAUCUACAAAUAAU | 0.162 |
| GAUACAUCCAACAGAGUAACAGUCAAGAGCCUUGAUUAUAGUAGGAAGCUGAAAAAUGUAUCCGUUACCAUUUACUGGCUGGGAAAAGCAGCAAACAGCUGCACAUCCUACAGCGGAACG | 0.263 |

Study 4 — method: aptamer microarray, sandwich; molecule type: DNA with 2'F-ANA; medium: in vitro; concentration: 200 nM; added: Cy3 exosite-II aptamer, 400 nM; reading: higher = stronger binding; sequence: GGTTGGTGTGGTTGG
Target: Prothrombin, mature alpha-thrombin (F2, Homo sapiens, UniProt P00734)
Notes: whole 15-mer aptamer, many near background
| Modification | mean fluorescence intensity |
| --- | --- |
| 2'F-ANA at 3 9 10 11 13 14 15 | 381 a.u. |
| 2'F-ANA at 1 3 4 6 12 13 14 | 93.3 a.u. |
| 2'F-ANA at 1 2 3 5 6 7 8 11 13 14 | 47.5 a.u. |
| 2'F-ANA at 4 5 6 7 9 11 12 13 15 | 68.7 a.u. |
| 2'F-ANA at 1 2 9 11 12 15 | 265 a.u. |
| 2'F-ANA at 1 3 6 9 11 15 | 209 a.u. |
| 2'F-ANA at 1 2 5 7 8 9 10 11 12 13 14 15 | 72.2 a.u. |
| 2'F-ANA at 2 5 6 8 11 14 | 47.1 a.u. |
| 2'F-ANA at 3 5 7 8 9 11 12 13 14 15 | 63.1 a.u. |
| 2'F-ANA at 2 7 9 12 14 15 | 181 a.u. |
| 2'F-ANA at 1 2 5 6 9 12 | 114 a.u. |
| 2'F-ANA at 2 8 11 12 15 | 660 a.u. |
| 2'F-ANA at 1 2 3 8 9 11 13 14 | 67.4 a.u. |
| 2'F-ANA at 2 4 5 6 7 11 13 14 | 49.3 a.u. |
| 2'F-ANA at 5 8 | 105 a.u. |
| 2'F-ANA at 2 4 6 9 12 13 | 290 a.u. |
| 2'F-ANA at 3 4 5 7 12 14 15 | 62.9 a.u. |
| 2'F-ANA at 2 5 7 8 9 11 12 14 15 | 65.7 a.u. |
| 2'F-ANA at 1 2 3 4 5 6 7 9 11 12 13 14 | 51.9 a.u. |
| 2'F-ANA at 1 3 4 7 8 10 11 13 15 | 58.6 a.u. |
| 2'F-ANA at 1 2 3 4 5 7 13 | 72.1 a.u. |
| 2'F-ANA at 1 2 3 4 6 7 13 15 | 101 a.u. |
| 2'F-ANA at 2 4 5 8 9 10 11 13 14 15 | 188 a.u. |
| 2'F-ANA at 4 5 9 10 14 | 60 a.u. |

Repeated from above (study 2):
| Sequence | fitted relative affinity [z-score] |
| --- | --- |
| TCAAGTTTTCTTTTCCAACTGTGCTAG | 3.59 |
| GAAGGTATCCTTTTCCTGACGTGCTAG | 1.02 |
| GACCATATCAGTATCGAGACGTGCTAG | 0.708 |
| GACGTTATCGGGTTTCGGGACGTGCTA | 2.34 |
| TTAGGACTGGACTTTCGGTTGGTGCTA | 7.07 |
